Published values collected from several papers.
Lines come from different studies, so protocols differ.
Cell line: human red blood cells

Structure (SMILES) = CC[C@H](C)[C@H](NC(=O)[C@H](CCCCN)NC(=O)[C@H](CC(C)C)NC(=O)[C@H](CCSC)NC(=O)[C@H](CO)NC(=O)[C@H](C)NC(=O)CNC(=O)[C@H](CCCCN)NC(=O)[C@H](CCCCN)NC(=O)[C@H](CC(N)=O)NC(=O)CNC(=O)[C@H](CCCCN)NC(=O)[C@H](CC(C)C)NC(=O)[C@H](CCCNC(=N)N)NC(=O)[C@@H](NC(=O)[C@H](CC(C)C)NC(=O)[C@H](Cc1ccc(O)cc1)NC(=O)[C@H](CCCCN)NC(=O)[C@H](C)NC(=O)[C@H](CCCCN)NC(=O)[C@@H]1CCCN1C(=O)[C@H](CCCCN)NC(=O)CNC(=O)[C@H](CCCNC(=N)N)NC(=O)[C@H](CC(C)C)NC(=O)[C@H](CCC(N)=O)NC(=O)[C@@H](N)Cc1ccccc1)C(C)C)C(=O)N[C@@H](CC(C)C)C(=O)N[C@@H](C)C(=O)N[C@H](C(=O)N[C@H](C(=O)N[C@@H](CCCNC(=N)N)C(=O)N1CCC[C@H]1C(=O)N[C@H](C(=O)N[C@@H](CCCCN)C(=O)N[C@@H](CCC(N)=O)C(=O)N[C@@H](CO)C(=O)N[C@@H](Cc1ccccc1)C(=O)N1CCC[C@H]1C(=O)N[C@@H](CO)C(=O)N[C@@H](CC(C)C)C(=O)N1CCC[C@H]1C(=O)O)[C@@H](C)O)[C@@H](C)O)[C@@H](C)O; test = hemolysis; endpoint = HC50; result = 18.4 µmol/L
Structure (SMILES) = CC(=O)N[C@@H](CCCCN)C(=O)N[C@@H](CCCCN)C(=O)N[C@@H](CC(C)C)C(=O)N[C@@H](CC(C)C)C(=O)N[C@@H](CCCCN)C(=O)N[C@@H](CC(C)C)C(=O)N[C@@H](CC(C)C)C(=O)N[C@@H](C)C(=O)N[C@@H](CCCCN)C(=O)N1CCC[C@H]1C(=O)N[C@@H](CC(C)C)C(=O)N[C@@H](CCCCN)C(=O)N[C@@H](CC(C)C)C(=O)N[C@@H](CC(C)C)C(=O)N[C@@H](CCCCN)C(N)=O; test = haemolysis; setting = 6 h, 37 °C, 5% haematocrit in PBS; endpoint = MHC10; result = > 160 µM
Structure (SMILES) = CC(C)C[C@H](NC(=O)CNC(=O)[C@H](CC(C)C)NC(=O)[C@H](CC(C)C)NC(=O)[C@H](CC(C)C)NC(=O)[C@H](CCCCN)NC(=O)[C@@H](N)CCCCN)C(=O)NCC(=O)N[C@@H](CC(C)C)C(=O)N[C@@H](CC(C)C)C(=O)N[C@@H](CC(C)C)C(=O)N[C@@H](CCCCN)C(=O)N[C@@H](CCCCN)C(=O)O; setting = 1 h, 37 °C, 10% hemolysis; endpoint = lowest hemolytic concentration; result = > 256 µg/mL
Structure (SMILES) = CC[C@H](C)[C@H](NC(=O)[C@H](Cc1ccccc1)NC(=O)[C@H](Cc1ccccc1)NC(=O)[C@@H](NC(=O)[C@@H](NC(=O)[C@H](CCCCN)NC(=O)[C@H](CCC(N)=O)NC(=O)[C@H](Cc1c[nH]cn1)NC(=O)[C@H](CO)NC(=O)[C@H](CO)NC(=O)[C@@H](NC(=O)[C@@H]1CCCN1C(=O)[C@H](C)NC(=O)[C@H](Cc1ccccc1)NC(=O)[C@H](CCCNC(=N)N)NC(=O)[C@H](CC(C)C)NC(=O)[C@H](Cc1ccccc1)NC(=O)[C@H](CCCCN)NC(=O)[C@H](C)NC(=O)CNC(=O)[C@H](CCCCN)NC(=O)[C@H](CCCNC(=N)N)NC(=O)[C@H](CCCCN)NC(=O)[C@@H](NC(=O)[C@H](Cc1ccccc1)NC(=O)[C@@H](NC(=O)[C@H](CC(=O)O)NC(=O)[C@@H](NC(=O)[C@@H](NC(=O)[C@@H](N)CCCCN)[C@@H](C)CC)[C@@H](C)O)C(C)C)C(C)C)C(C)C)C(C)C)[C@@H](C)O)C(=O)N[C@@H](Cc1c[nH]cn1)C(=O)O; test = hemolysis; endpoint = HC50; result = 3550 µmol/L
Structure (SMILES) = CC(C)C[C@H](NC(=O)CNC(=O)[C@H](CCCCN)NC(=O)[C@H](CC(C)C)NC(=O)[C@H](CC(C)C)NC(=O)[C@H](CC(C)C)NC(=O)[C@@H](N)CCCCN)C(=O)NCC(=O)N[C@@H](CCCCN)C(=O)N[C@@H](CC(C)C)C(=O)N[C@@H](CC(C)C)C(=O)N[C@@H](CC(C)C)C(=O)N[C@@H](CCCCN)C(=O)O; setting = 1 h, 37 °C, 10% hemolysis; endpoint = lowest hemolytic concentration; result = > 256 µg/mL
Structure (SMILES) = CCCCCC(=O)N[C@@H](CCCCN)C(=O)N[C@@H](CCCCN)C(=O)N[C@@H](C)C(=O)N[C@@H](CC(C)C)C(=O)N[C@@H](CCCCN)C(=O)N[C@@H](CC(C)C)C(=O)N[C@@H](C)C(=O)N[C@@H](CCCCN)C(=O)N[C@@H](CCCCN)C(=O)N1CCC[C@H]1C(=O)N[C@@H](CC(C)C)C(=O)N[C@@H](CCCCN)C(=O)N[C@@H](CC(C)C)C(=O)N[C@@H](CC(C)C)C(=O)N[C@@H](CCCCN)C(N)=O; test = haemolysis; setting = 6 h, 37 °C, 5% haematocrit in PBS; endpoint = MHC10; result = > 160 µM
Structure (SMILES) = CC[C@H](C)[C@H](NC(=O)[C@H](CCCNC(=N)N)NC(=O)[C@@H](NC(=O)[C@H](CC(C)C)NC(=O)[C@H](Cc1c[nH]c2ccccc12)NC(=O)[C@H](Cc1ccc(O)cc1)NC(=O)[C@@H](NC(=O)[C@H](CO)NC(=O)[C@@H](NC(=O)[C@H](CCCNC(=N)N)NC(=O)[C@H](CCC(N)=O)NC(=O)[C@H](CCCNC(=N)N)NC(=O)[C@@H]1CCCN1C(=O)[C@H](CC(C)C)NC(=O)[C@H](CO)NC(=O)[C@@H](NC(=O)[C@H](CC(C)C)NC(=O)[C@@H]1CCCN1C(=O)[C@H](CCC(N)=O)NC(=O)[C@H](CCCCN)NC(=O)[C@H](Cc1c[nH]cn1)NC(=O)[C@H](CS)NC(=O)[C@H](CCCNC(=N)N)NC(=O)[C@H](CCCCN)NC(=O)[C@H](CO)NC(=O)[C@H](CC(C)C)NC(=O)[C@H](CO)NC(=O)[C@H](Cc1ccccc1)NC(=O)[C@H](CC(C)C)NC(=O)[C@H](CCCCN)NC(=O)[C@H](Cc1c[nH]cn1)NC(=O)[C@@H](NC(=O)[C@@H](NC(=O)[C@H](CCCCN)NC(=O)[C@H](CCC(N)=O)NC(=O)[C@H](C)NC(=O)[C@H](CCCCN)NC(=O)[C@H](CC(C)C)NC(=O)[C@H](Cc1ccccc1)NC(=O)[C@H](CC(C)C)NC(=O)[C@H](CCC(N)=O)NC(=O)[C@H](CCCCN)NC(=O)[C@@H](N)CCSC)[C@@H](C)CC)C(C)C)[C@@H](C)CC)[C@@H](C)O)[C@@H](C)O)[C@@H](C)O)C(=O)O; test = hemolysis; endpoint = HC50; result = 27.7 µmol/L
Structure (SMILES) = CC(=O)N[C@@H](CCCCN)C(=O)N[C@@H](CCCCN)C(=O)N[C@@H](C)C(=O)N[C@@H](CC(C)C)C(=O)N[C@@H](CCCCN)C(=O)N[C@@H](CC(C)C)C(=O)N[C@@H](CC(C)C)C(=O)N[C@@H](CCCCN)C(=O)N[C@@H](CCCCN)C(=O)N1CCC[C@H]1C(=O)N[C@@H](CC(C)C)C(=O)N[C@@H](CCCCN)C(=O)N[C@@H](CC(C)C)C(=O)N[C@@H](CC(C)C)C(=O)N[C@@H](CCCCN)C(N)=O; test = haemolysis; setting = 6 h, 37 °C, 5% haematocrit in PBS; endpoint = MHC10; result = > 160 µM
Structure (SMILES) = CC(C)C[C@H](NC(=O)CN)C(=O)N[C@@H](CCCCN)C(=O)N[C@@H](CCCCN)C(=O)N[C@@H](CC(C)C)C(=O)N[C@@H](CC(C)C)C(=O)N[C@@H](CC(C)C)C(=O)N[C@@H](CC(C)C)C(=O)N[C@@H](CC(C)C)C(=O)N[C@@H](CCCCN)C(=O)N[C@@H](CCCCN)C(=O)N[C@@H](CC(C)C)C(=O)NCC(=O)NCC(=O)NCC(=O)N[C@@H](Cc1ccc(O)cc1)C(=O)N[C@H](C(=O)N[C@@H](CC(C)C)C(=O)N[C@@H](CO)C(=O)N[C@@H](CC(=O)O)C(=O)N[C@@H](CCCNC(=N)N)C(=O)N[C@@H](CO)C(=O)N[C@@H](Cc1c[nH]cn1)C(=O)N[C@@H](CC(N)=O)C(=O)N1CCC[C@H]1C(=O)N[C@@H](Cc1ccccc1)C(=O)N[C@@H](CC(N)=O)C(=O)O)[C@@H](C)O; setting = 1 h, 37 °C, 10% hemolysis; endpoint = lowest hemolytic concentration; result = > 256 µg/mL
Structure (SMILES) = CC[C@H](C)[C@H](NC(=O)[C@H](CCCCN)NC(=O)[C@H](CCCCN)NC(=O)[C@H](Cc1ccccc1)NC(=O)[C@@H](NC(=O)[C@@H](NC(=O)[C@H](CCCNC(=N)N)NC(=O)[C@H](Cc1ccccc1)NC(=O)[C@@H](NC(=O)[C@H](CCCCN)NC(=O)[C@H](CCCCN)NC(=O)[C@@H](N)CCSC)[C@@H](C)CC)C(C)C)[C@@H](C)CC)C(=O)N[C@@H](CC(C)C)C(=O)N[C@@H](CCCCN)C(=O)N[C@@H](CCCNC(=N)N)C(=O)N[C@@H](CC(C)C)C(=O)N[C@H](C(=O)N[C@H](C(=O)O)C(C)C)[C@@H](C)CC; setting = 128 µg/mL, 1 h, 37 °C; how to read = reference: Triton X-100; endpoint = haemolysis; result = 96.5%
